# Results from different studies.
# ± gives the spread as reported.
# Target: Aurora kinase B (AURKB, Homo sapiens, UniProt Q96GD4)
# Sequence of UniProt Q96GD4 (whole entry, looked up): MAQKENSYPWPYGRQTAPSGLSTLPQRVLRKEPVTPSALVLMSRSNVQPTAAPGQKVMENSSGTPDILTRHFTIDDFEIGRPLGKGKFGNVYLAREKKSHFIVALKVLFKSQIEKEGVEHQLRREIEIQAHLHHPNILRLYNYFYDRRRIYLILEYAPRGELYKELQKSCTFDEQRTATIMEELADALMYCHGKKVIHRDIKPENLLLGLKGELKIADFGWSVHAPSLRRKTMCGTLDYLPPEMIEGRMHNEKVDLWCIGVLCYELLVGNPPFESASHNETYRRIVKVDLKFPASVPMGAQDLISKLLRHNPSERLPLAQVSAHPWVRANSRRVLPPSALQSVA
SMILES,assay,system,conditions,how to read,endpoint,value
CC#CC(=O)N1CCC[C@H]1c1nc(-c2ccc(C(=O)Nc3ccccn3)cc2)c2c(N)nccn12,"kinase activity, inhibitor, HotSpot radiometric",,"100 nM, added: ATP 10 µM",,remaining activity,88.3 ± 2.7%
Cc1cc(-c2ccnc3[nH]cc(F)c23)cc(F)c1[C@@]1(O)[C@H](C)CN(C2CCS(=O)(=O)CC2)C[C@@H]1C,"ATP/ADP probe binding, KiNativ",HEK293T lysate,"10 µM, Lys1 peptide",,probe labelling inhibition,67.2%
COc1ccc(F)cc1C(=O)NCc1ccc(-c2nn([C@@H](C)C(F)(F)F)c(N)c2C(N)=O)cc1,"kinase activity, inhibitor, HotSpot radiometric",,"100 nM, added: ATP 10 µM",,remaining activity,85.9 ± 2.2%
COCCNc1nc2ccc(C#CC3(O)CCCCC3)cc2n1-c1ccnc(N)n1,"enzyme activity, inhibitor, Z'-LYTE",,1 µM,reference: no-inhibitor control,remaining kinase activity,4.7%
Cc1cc(-c2ccnc3[nH]cc(F)c23)cc(F)c1[C@@]1(O)[C@H](C)CN(C(=O)CN)C[C@@H]1C,"ATP/ADP probe binding, KiNativ",HEK293T lysate,"1 µM, Lys1 peptide",,probe labelling inhibition,-13.9%
COc1cc(-c2cncc3c2CN(C)Cc2cc(N4CCNCC4)ccc2-3)cc(OC)c1OC,kinase activity,,"1 µM, human enzyme, added: ATP 10 µM",reference: DMSO control,remaining activity,94%
Cc1ncsc1-c1ccc([C@H](C)NC(=O)[C@@H]2C[C@@H](O)CN2C(=O)[C@@H](NC(=O)CCCCCCCCC(=O)N(CCO)CCCOc2ccc3c(Nc4cc(CC(=O)Nc5cccc(F)c5)[nH]n4)ncnc3c2)C(C)(C)C)cc1,"degrader, western blot",HPAF-II cells,1 µM,,duration of degradation,≤ 24 h
COc1cc(F)ccc1-c1ncnc(Nc2cccc(C[S@](C)(=N)=O)c2)n1,kinase activity,,"10 µM, added: 10 µM ATP",,remaining activity,42%
C=CC(=O)N1CCC[C@@H](n2nc(-c3ccc(Oc4ccccc4)cc3)c3c(N)ncnc32)C1,,,0.1 µM,,remaining activity,153%

# A few entries again:
SMILES,assay,system,conditions,how to read,endpoint,value
COCCNc1nc2ccc(C#CC3(O)CCCCC3)cc2n1-c1ccnc(N)n1,"enzyme activity, inhibitor, Z'-LYTE",,1 µM,reference: no-inhibitor control,remaining kinase activity,4.7%
